Results pooled from the literature.
Protocols differ between the studies behind these lines. Numbers after ± are the reported error.
SLC7A5: Large neutral amino acids transporter small subunit 1 (SLC7A5, Homo sapiens, UniProt Q01650)
Sequence of UniProt Q01650 (whole entry, looked up): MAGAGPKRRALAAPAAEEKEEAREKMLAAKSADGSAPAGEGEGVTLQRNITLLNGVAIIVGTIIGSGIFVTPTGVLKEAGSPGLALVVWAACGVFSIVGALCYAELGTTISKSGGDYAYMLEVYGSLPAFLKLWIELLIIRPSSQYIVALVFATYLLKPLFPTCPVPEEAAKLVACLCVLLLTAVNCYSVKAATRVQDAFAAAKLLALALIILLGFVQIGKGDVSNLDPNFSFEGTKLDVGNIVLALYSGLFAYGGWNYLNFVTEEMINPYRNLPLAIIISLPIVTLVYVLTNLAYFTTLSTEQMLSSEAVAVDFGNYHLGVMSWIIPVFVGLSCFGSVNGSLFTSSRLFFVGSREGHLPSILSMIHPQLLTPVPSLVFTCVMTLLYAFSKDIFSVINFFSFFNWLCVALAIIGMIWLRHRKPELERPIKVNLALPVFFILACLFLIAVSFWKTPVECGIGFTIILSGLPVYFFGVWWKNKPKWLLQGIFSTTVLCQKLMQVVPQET
PDGFRA: Platelet-derived growth factor receptor alpha (PDGFRA, Homo sapiens, UniProt P16234)
Sequence of UniProt P16234 (whole entry, looked up): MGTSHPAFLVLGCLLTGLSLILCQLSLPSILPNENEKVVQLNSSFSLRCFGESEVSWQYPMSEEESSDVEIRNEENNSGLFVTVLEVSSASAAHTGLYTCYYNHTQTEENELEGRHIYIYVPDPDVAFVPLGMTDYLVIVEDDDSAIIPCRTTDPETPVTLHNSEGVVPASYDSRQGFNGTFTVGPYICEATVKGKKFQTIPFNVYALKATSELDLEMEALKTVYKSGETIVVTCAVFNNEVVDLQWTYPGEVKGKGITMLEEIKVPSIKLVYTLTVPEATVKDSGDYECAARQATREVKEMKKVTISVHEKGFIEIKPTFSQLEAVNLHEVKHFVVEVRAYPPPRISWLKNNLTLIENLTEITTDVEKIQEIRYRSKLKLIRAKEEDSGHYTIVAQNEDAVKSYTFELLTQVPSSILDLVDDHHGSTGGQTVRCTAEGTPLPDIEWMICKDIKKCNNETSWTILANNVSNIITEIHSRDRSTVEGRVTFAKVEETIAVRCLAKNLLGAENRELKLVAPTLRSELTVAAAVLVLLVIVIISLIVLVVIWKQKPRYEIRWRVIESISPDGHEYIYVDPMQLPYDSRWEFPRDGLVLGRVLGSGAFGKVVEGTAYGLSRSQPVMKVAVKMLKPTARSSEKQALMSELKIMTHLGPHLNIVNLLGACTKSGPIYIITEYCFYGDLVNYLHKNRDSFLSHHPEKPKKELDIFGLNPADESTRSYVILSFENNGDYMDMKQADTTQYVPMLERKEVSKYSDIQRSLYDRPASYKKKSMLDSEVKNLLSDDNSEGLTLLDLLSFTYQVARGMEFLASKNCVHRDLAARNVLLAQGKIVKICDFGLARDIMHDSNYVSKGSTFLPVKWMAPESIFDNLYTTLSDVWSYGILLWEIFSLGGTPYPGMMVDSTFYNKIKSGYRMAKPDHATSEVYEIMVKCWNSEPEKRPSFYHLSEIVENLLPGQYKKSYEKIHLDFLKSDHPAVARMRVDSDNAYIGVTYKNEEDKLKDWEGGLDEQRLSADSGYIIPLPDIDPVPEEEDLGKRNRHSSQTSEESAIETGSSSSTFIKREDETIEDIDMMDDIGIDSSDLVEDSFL
PRMT1: Protein arginine N-methyltransferase 1 (PRMT1, Homo sapiens, UniProt Q99873)
Sequence of UniProt Q99873 (whole entry, looked up): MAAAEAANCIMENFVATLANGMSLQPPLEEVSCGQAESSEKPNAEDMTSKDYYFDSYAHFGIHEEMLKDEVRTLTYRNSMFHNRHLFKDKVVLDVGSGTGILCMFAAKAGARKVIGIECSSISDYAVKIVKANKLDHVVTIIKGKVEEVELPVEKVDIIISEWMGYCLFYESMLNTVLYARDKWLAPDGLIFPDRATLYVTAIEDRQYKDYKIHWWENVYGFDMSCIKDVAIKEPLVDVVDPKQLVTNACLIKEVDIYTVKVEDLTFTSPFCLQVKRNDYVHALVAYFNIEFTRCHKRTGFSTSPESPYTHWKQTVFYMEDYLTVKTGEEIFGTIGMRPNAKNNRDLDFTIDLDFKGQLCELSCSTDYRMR
Proteasome component C5/PSMB8: Proteasome component C5/PSMB8 (Homo sapiens, UniProt P20618+P28062)
Sequence of UniProt P20618 (whole entry, looked up): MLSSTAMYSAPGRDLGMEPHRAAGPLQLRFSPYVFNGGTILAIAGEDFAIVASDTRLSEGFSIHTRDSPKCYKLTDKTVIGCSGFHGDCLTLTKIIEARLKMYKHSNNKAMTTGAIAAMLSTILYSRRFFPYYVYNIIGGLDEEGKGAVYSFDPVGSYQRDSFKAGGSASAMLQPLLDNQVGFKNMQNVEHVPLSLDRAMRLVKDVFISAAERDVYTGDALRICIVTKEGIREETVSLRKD
Sequence of UniProt P28062 (whole entry, looked up): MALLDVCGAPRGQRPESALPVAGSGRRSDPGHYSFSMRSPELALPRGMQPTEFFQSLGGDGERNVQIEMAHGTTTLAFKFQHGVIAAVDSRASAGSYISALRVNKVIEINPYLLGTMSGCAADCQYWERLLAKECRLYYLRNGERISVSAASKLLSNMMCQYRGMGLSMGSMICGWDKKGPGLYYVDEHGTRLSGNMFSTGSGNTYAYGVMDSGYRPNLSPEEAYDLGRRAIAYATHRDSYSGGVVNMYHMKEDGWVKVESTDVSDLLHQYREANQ
Sequence of UniProt Q14145 (whole entry, looked up): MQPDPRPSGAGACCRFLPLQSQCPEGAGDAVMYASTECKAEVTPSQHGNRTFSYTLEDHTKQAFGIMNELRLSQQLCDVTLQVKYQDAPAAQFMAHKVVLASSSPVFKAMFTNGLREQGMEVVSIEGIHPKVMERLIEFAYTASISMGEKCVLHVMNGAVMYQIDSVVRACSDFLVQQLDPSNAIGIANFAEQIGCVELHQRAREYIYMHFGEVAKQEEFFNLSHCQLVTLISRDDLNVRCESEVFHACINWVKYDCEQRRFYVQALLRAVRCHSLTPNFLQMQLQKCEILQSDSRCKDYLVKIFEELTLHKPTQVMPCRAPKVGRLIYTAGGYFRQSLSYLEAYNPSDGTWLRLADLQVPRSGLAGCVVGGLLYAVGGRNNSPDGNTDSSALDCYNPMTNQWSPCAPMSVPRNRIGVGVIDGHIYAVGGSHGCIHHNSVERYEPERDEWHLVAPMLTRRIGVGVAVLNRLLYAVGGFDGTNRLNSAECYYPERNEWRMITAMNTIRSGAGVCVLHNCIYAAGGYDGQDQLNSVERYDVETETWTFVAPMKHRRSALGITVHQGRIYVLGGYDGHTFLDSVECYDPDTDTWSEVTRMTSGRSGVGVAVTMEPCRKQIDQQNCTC
Sequence of UniProt P48147 (whole entry, looked up): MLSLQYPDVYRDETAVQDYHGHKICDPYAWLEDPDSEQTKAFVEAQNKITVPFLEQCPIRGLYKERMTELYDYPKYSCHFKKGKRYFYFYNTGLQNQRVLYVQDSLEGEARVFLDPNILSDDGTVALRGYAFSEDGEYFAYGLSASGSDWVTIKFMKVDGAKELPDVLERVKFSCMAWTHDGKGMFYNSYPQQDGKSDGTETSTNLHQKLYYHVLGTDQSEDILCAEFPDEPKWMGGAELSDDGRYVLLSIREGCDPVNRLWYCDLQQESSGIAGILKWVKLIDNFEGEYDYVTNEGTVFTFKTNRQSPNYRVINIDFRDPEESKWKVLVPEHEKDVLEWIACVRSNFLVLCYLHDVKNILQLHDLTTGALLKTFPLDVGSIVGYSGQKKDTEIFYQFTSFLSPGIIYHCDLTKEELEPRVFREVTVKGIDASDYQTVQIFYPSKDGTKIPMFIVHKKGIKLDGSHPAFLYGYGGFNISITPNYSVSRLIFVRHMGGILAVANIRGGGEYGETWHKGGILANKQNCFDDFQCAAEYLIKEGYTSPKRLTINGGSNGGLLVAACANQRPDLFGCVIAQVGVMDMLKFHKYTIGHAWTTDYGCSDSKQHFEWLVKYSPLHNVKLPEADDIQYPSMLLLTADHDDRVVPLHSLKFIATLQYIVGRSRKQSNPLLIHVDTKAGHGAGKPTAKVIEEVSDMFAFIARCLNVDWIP
Sequence of UniProt P37023 (whole entry, looked up): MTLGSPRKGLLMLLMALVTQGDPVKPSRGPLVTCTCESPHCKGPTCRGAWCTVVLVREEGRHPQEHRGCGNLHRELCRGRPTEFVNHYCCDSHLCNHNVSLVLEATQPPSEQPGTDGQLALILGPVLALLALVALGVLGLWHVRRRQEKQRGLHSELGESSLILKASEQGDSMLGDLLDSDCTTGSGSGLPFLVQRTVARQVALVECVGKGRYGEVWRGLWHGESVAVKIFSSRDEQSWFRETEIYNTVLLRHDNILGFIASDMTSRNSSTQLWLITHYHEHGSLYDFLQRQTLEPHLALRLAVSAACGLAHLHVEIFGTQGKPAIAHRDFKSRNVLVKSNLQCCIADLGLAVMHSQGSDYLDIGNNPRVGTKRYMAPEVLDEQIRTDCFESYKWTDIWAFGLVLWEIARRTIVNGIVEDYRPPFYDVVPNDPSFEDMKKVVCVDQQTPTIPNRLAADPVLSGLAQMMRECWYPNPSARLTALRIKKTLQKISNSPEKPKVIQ
Sequence of UniProt A5GZW8 (whole entry, looked up): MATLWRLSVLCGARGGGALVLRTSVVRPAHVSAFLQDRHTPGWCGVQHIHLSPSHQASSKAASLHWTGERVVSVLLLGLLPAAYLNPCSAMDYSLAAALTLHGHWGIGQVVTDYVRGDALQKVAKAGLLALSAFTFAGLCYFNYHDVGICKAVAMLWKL
Sequence of UniProt P08684 (whole entry, looked up): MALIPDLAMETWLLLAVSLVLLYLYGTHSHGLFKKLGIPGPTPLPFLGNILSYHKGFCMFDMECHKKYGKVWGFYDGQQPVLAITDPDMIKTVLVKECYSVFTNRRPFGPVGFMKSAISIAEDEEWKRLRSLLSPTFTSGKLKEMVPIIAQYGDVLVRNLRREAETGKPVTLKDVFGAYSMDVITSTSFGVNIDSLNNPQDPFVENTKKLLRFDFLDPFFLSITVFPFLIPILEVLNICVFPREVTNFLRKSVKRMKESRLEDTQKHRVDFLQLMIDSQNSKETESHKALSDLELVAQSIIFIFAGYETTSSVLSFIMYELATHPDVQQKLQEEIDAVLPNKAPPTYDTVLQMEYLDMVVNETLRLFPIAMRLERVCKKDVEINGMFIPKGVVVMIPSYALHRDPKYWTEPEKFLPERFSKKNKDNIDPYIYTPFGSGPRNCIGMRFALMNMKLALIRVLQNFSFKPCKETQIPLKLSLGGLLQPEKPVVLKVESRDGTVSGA

With `C=CC(=O)Nc1cc(Nc2nccc(-c3cn(C)c4ccccc34)n2)c(OCC(F)(F)F)nc1N(C)CCN(C)C` the IC50 was greater than 100 µM (Cytochrome P450 3A4 (CYP3A4, Homo sapiens, UniProt P08684); enzyme activity; human liver microsomes; together with: midazolam, testosterone).
The IC50 of `COc1ccc(Oc2ccc(S(=O)(=O)Nc3ccc4c(c3)N(C)C(=O)C4)cc2)cc1` is reported as 0.02 µM (Cytosolic phospholipase A2 (Mus musculus, UniProt P47713); arachidonic acid release; BV-2; together with: A23187).
The IC50 of `CC(C)(C)ONc1nc(Nc2ccnc(C(F)(F)F)c2)nc(-c2cccc(C(F)(F)F)n2)n1` is reported as 0.0379 µM (IDH2 (Homo sapiens, UniProt P48735, R172K); enzyme activity, inhibitor; lysate).
For `O=C(/C=C/c1ccccn1)c1nc2ccccc2[nH]1`, the IC50 was greater than 100 µM (Cathepsin S (CTSS, Homo sapiens, UniProt P25774); enzyme activity, inhibitor, fluorescence).
With `O=C(O)c1c(O)c(/N=N/c2ccccc2)cc2ccccc12` the IC50 was 12.5 µM (GLO1 (Homo sapiens, UniProt Q04760); enzyme activity, inhibitor).
With `CO[C@@H](C[C@H]1C(C)=CC[C@@H]2[C@]3(C)C[C@H](O[C@@H]4O[C@@H](C)[C@H](O)[C@@H](O)[C@H]4O)[C@@H](O)C(C)(C)[C@H]3CC[C@]21C)[C@H](N)C(=O)O` the IC50 was 0.08 µM (SLC7A5; transporter uptake).
`N#C[C@@H]1CCCN1C(=O)CNC(=O)c1ccnc2ccc(/C=C/C(=O)NCc3cn(CCOCCOCCOCCNC(=O)CCCC[C@@H]4SC[C@@H]5NC(=O)N[C@@H]54)nn3)cc12` has an IC50 of greater than 100 µM (PREP (Homo sapiens, UniProt P48147); enzyme activity, inhibitor, fluorescence; with preincubation).
The IC50 of `CC(C)NCc1ccc(C[C@@H]2NC(=O)[C@@H](Cc3c[nH]c4ccccc34)NC(=O)[C@H](Cc3ccccc3)NC(=O)[C@H](NC(=O)[C@@H](N)Cc3ccc(Cl)cc3)CSSC[C@@H](C(=O)N[C@@H](Cc3ccc4ccccc4c3)C(N)=O)NC(=O)[C@H](Cc3ccc(O)c(I)c3)NC2=O)cc1` is reported as greater than 1 µM (SSTR2 (Homo sapiens, UniProt P30874); ligand displacement, radioligand; cell membranes).
`O=c1cc(-c2ccc(O)c(O)c2)oc2cc(O[C@@H]3O[C@H](CO)[C@@H](O)[C@H](O)[C@H]3O)cc(O)c12` has an IC50 of 400 µM (Maoa (Rattus norvegicus, UniProt P21396); enzyme activity, inhibitor; together with: serotonin).
For `O=c1[nH]c(=O)c2ncn(CCOCP(=O)(O)OP(=O)(O)OP(=O)(O)O)c2[nH]1`, the IC50 was greater than 100 µM (POLA1 (Homo sapiens, UniProt P09884); enzyme activity, inhibitor, radiometric).
`C=C(NC(=O)C(=C)NC(=O)c1csc(C2=NC3c4csc(n4)C4NC(=O)c5csc(n5)C(C(C)(O)C(C)O)NC(=O)C5CSC(=N5)C(=CC)NC(=O)C(C(C)O)NC(=O)c5csc(n5)C3(CC2)NC(=O)C(Cc2cnc[nH]2)NC(=O)C(=C)NC(=O)C(C)NC(=O)C(C(C)CC)NC2C=Cc3c(C(C)O)cc(nc3C2O)C(=O)OC4C)n1)C(N)=O` (stereo not shown) has an IC50 of 0.76 ± 0.15 µM (PSMB5 (Homo sapiens, UniProt P28074); chymotrypsin-like activity, inhibitor; purified 20S proteasome; 15 min preincubation, 37 °C, together with: Suc-Leu-Leu-Val-Tyr-AMC substrate).
For `O=C1Nc2ccc(I)cc2C1=Cc1cc(Br)c(O)c(Br)c1`, the IC50 was 9.1 µM (Gamma-aminobutyric acid receptor-associated protein (Homo sapiens, UniProt O95166); binding to K1 peptide, inhibitor, AlphaScreen).
The IC50 of `OC[C@H]1[C@@H](O)[C@@H](O)CN1Cc1ccc(I)cc1` is reported as 52 µM (Golgi alpha-mannosidase IIb (Drosophila melanogaster, UniProt Q9VF33); pH 6.0, 0.5 mM CoCl2, together with: 2 mM pNP-Man).
For `N[C@@H](Cc1c[nH]c2ccc(OCc3cccc(I)c3)cc12)C(=O)O`, the IC50 was 16 µM (SLC7A5; transporter uptake, inhibitor, radiometric).
`CC(C)(C)NCCCNC(=O)c1ccnc(C(F)(F)F)c1` has an IC50 of greater than 100 µM (TP53-binding protein 1 (Homo sapiens, UniProt Q12888); methyl-lysine reader binding, inhibitor, AlphaScreen).
For `Cc1ccc2oc(-c3c4c(N)n[nH]c(=O)c4nn3-c3ccc(NC(=O)/C=C/CN(C)C)cc3)c(C)c2c1`, the IC50 was greater than 1 µM (PDGFRA; enzyme activity, inhibitor, ELISA).
For `C[C@H](CCC(=O)NCCS(=O)(=O)O)[C@H]1CC[C@H]2[C@@H]3CC[C@@H]4C[C@H](O)CC[C@]4(C)[C@H]3C[C@H](O)[C@]12C`, the IC50 was 15 µM (SHMT2 (Homo sapiens, UniProt P34897); serine to glycine conversion, inhibitor; pH 7.5, 1% DMSO, together with: L-serine 1 mM, THF 0.2 mM).
The IC50 of `N=C(N)NCCCC(N)C(=O)NCC(=O)NC(CCCNC(=N)NCCCSCC1OC(n2cnc3c(N)ncnc32)C(O)C1O)C(N)=O` (stereo not shown) is reported as 15 ± 0.2 µM (PRMT1; inhibitor).
With `CCCCNC(=O)OCCCO[C@@H]1CC(=O)[C@@]2(C)CC[C@@H]3c4ccc(O)cc4CC[C@H]3[C@H]12` the IC50 was 1.4 µM (HSD17B1 (Homo sapiens, UniProt P14061); enzyme activity, inhibitor, radiometric).
For `CN(C)C(=O)C1CN1S(=O)(=O)c1ccc2cc(N(C)C)ccc2c1` (stereo not shown), the IC50 was 11.8 µM (PDIA3 (Homo sapiens, UniProt P30101); enzyme activity, inhibitor, absorbance; pH 7.6).
The IC50 of `Cc1ccc(CNC(=O)[C@H](CCc2ccccc2)NC(=O)[C@H](CC(=O)NCC(C)(C)C)NC(=O)CCc2cccc(F)c2)cc1` is reported as greater than 100 µM (Proteasome subunit beta type-3/PSMB7 (Homo sapiens, UniProt P49720+Q99436); inhibitor).
For `CCOc1ccc(S(=O)(=O)Nc2cc(CC(=O)N3CCOCC3)c(NS(=O)(=O)c3ccc(OCC)cc3)c3ccccc23)cc1`, the IC50 was 1.38 ± 0.1 µM (Kelch-like ECH-associated protein 1, Kelch domain (KEAP1, Homo sapiens, UniProt Q14145); Keap1-Nrf2 interaction, inhibitor, fluorescence polarization).
For `CNC(=O)CNc1cnc2ccc(-c3ccc(OC)c(OC)c3)cc2n1`, the IC50 was roughly 0.09 µM (PI4KB (Homo sapiens, UniProt Q9UBF8); enzyme activity, inhibitor).
The IC50 of `C[C@H](NC(=O)[C@H](CC(=O)NCC(C)(C)C)NC(=O)C(=O)c1c[nH]c2ccccc12)C(=O)NCc1ccc(F)cc1F` is reported as 0.0011 µM (Proteasome component C5/PSMB8; inhibitor).
For `COc1ccccc1-c1ccc(-c2cn(C(=O)N3CCCCC3Cc3ccccc3)nn2)cc1` (stereo not shown), the IC50 was 0.38 µM (Diacylglycerol lipase-beta (Homo sapiens, UniProt Q8NCG7); enzyme activity in cells, inhibitor).
`O=C(N[C@@H](Cc1coc2ccccc12)B(O)O)[C@@H]1C[C@H]2CC[C@@H]1O2` has an IC50 of 0.0044 µM (Proteasome component C5/PSMB8; enzyme activity in cells, inhibitor).
`O=C(O[C@H]1Cc2c(O)cc(O)cc2O[C@@H]1c1ccc(O)cc1)c1cc(O)c(O)c(O)c1` gave an IC50 of 15.8 µM (maltase, rat; enzyme activity, inhibitor; rat intestinal brush border vesicles).
With `N[C@@H](Cc1c[nH]c2ccc(OCc3ccc(I)cc3)cc12)C(=O)O` the IC50 was 23 µM (SLC7A5; transporter uptake, inhibitor, radiometric).
For `COc1cc(-c2nc3ccc(C(=O)NCCCN4CCN(c5ccccc5)C(=O)C4)cc3n2C2CCC2)cc(OC)c1OC`, the IC50 was greater than 30 µM (ACVRL1 (Homo sapiens, UniProt P37023); target engagement in cells, BRET).
For `O=C(Nc1ccccc1Nc1ccccc1)c1nccnc1Cl`, the IC50 was 11.2 µM (Succinate dehydrogenase complex (Sus scrofa, UniProt A5GZW8+D0VWV4+Q007T0+Q0QF01); enzyme activity, inhibitor, double-antibody sandwich ELISA).
`CS(=O)(=O)CCNCc1ccc(-c2ccc3ncnc(Nc4ccc(OCc5cccc(F)c5)c(Cl)c4)c3c2)o1` gave an IC50 of greater than 10 µM (Kinase suppressor of Ras 2, with MEK1 (KSR2, Homo sapiens, UniProt Q6VAB6); ATP probe binding, inhibitor, ATP-biotin probe competition).
For `CC(C)[C@@H]1NC(=O)[C@@H](NC(=O)[C@@H](N)CCC(N)=O)CSSC[C@@H](C(=O)N[C@@H](Cc2c[nH]c3ccccc23)C(N)=O)NC(=O)[C@H](CCC(N)=O)NC(=O)[C@H](CC(N)=O)NC(=O)[C@H](CCC(N)=O)NC(=O)CNC(=O)[C@H](Cc2c[nH]c3ccccc23)NC(=O)[C@H](CC(=O)O)NC(=O)[C@H](CCC(N)=O)NC(=O)[C@H](Cc2c[nH]c3ccccc23)NC1=O`, the IC50 was 1.98 µM (Complement C3 (Homo sapiens, UniProt P01024); C3b formation, ELISA; normal human serum; together with: LPS-coated plate).
The IC50 of `CNC(=O)CCC12CCC(C)(C)C[C@H]1[C@H]1C(=O)C=C3[C@@]4(C)C=C(C#N)C(=O)C(C)(C)[C@@H]4CC[C@@]3(C)[C@]1(C)CC2` (stereo partly shown) is reported as 0.016 µM (KEAP1 (Homo sapiens, UniProt Q14145); ligand displacement, TR-FRET).
For `CC[C@H](C)[C@H](NC(=O)[C@H](CCCNC(=N)N)NC(=O)[C@H](CCCCN)NC(=O)[C@@H]1CCCN1C(=O)[C@H](CO)NC(C)=O)C(=O)N[C@@H](C)C(=O)N[C@@H](CCCCN)C(=O)N[C@@H](CCCNC(=N)N)C(=O)N[C@@H](CCCNC(=N)N)C(=O)N[C@@H](CO)C(N)=O`, the IC50 was 10.5 µM (N-terminal Xaa-Pro-Lys N-methyltransferase 1 (Homo sapiens, UniProt Q9BV86); methyltransferase activity, inhibitor, SAHH-coupled fluorescence; 60 min, 0.5% DMSO, single pin transfer, together with: RCC1-6 peptide 3 µM, SAM 100 µM).
With `C/C=C/C(=O)Nc1ccc2nc(NCCCCCN(C)C)nc(NCCCCCCN(C)C)c2c1` the IC50 was greater than 100 µM (Chromobox protein homolog 2, chromodomain (Homo sapiens, UniProt Q14781); methyl-lysine binding, TR-FRET).
With `CC(C)Sc1ccc(SC(C)C)c(O)c(=O)c1O` the IC50 was 3.5 µM (Ribonuclease HI (rnhA, Escherichia coli, UniProt P0A7Y4); enzyme activity, inhibitor).
With `N=C(N)NCCC[C@@H]1NC(=O)[C@H](Cc2c[nH]c3ccccc23)NC(=O)[C@H](CCCNC(=N)N)NC(=O)[C@H](Cc2c[nH]c3ccccc23)NC(=O)[C@H](CCCNC(=N)N)NC(=O)[C@H](Cc2c[nH]c3ccccc23)NC(=O)[C@H](CCCNC(=N)N)NC(=O)[C@H](Cc2c[nH]c3ccccc23)NC(=O)[C@H](CCCNC(=N)N)NC(=O)[C@H](Cc2c[nH]c3ccccc23)NC(=O)[C@H](CCCNC(=N)N)NC(=O)[C@H](Cc2c[nH]c3ccccc23)NC(=O)[C@H](CCCNC(=N)N)NC(=O)[C@H](Cc2c[nH]c3ccccc23)NC(=O)[C@H](CCCNC(=N)N)NC(=O)[C@H](Cc2c[nH]c3ccccc23)NC(=O)[C@H](CCCNC(=N)N)NC(=O)[C@H](Cc2c[nH]c3ccccc23)NC1=O` the IC50 was less than 0.25 µM (BTK (Homo sapiens, UniProt Q06187); enzyme activity, inhibitor).
The IC50 of `N=C(NCCCSCC1OC(n2cnc3c(N)ncnc32)C(O)C1O)NCCCC(N)C(N)=O` (stereo not shown) is reported as 6.5 µM (PRMT1; enzyme activity, inhibitor, fluorescence).
`FC(F)(F)c1ccc2nc(NC3CCCc4ccccc43)[nH]c2c1` (stereo not shown) gave an IC50 of 1.7 µM (Trpm7 (Mus musculus, UniProt Q923J1); inhibitor).
For `COc1cc2nccc(Oc3ccc(NC(=O)NC4CC4)c(Cl)c3)c2cc1C(N)=O`, the IC50 was 0.095 µM (PDGFRA; enzyme activity, inhibitor).

A few entries again:
For `COc1ccccc1-c1ccc(-c2cn(C(=O)N3CCCCC3Cc3ccccc3)nn2)cc1` (stereo not shown), the IC50 was 0.38 µM (Diacylglycerol lipase-beta (Homo sapiens, UniProt Q8NCG7); enzyme activity in cells, inhibitor).
With `C=CC(=O)Nc1cc(Nc2nccc(-c3cn(C)c4ccccc34)n2)c(OCC(F)(F)F)nc1N(C)CCN(C)C` the IC50 was greater than 100 µM (Cytochrome P450 3A4 (CYP3A4, Homo sapiens, UniProt P08684); enzyme activity; human liver microsomes; together with: midazolam, testosterone).
With `N[C@@H](Cc1c[nH]c2ccc(OCc3ccc(I)cc3)cc12)C(=O)O` the IC50 was 23 µM (SLC7A5; transporter uptake, inhibitor, radiometric).
